Results pooled from the literature.
Each line is one published result; not all experiments were run side by side. Several values in a cell are separate wells, animals, samples, runs or records. ± gives the spread as reported.
B1: human ribophorin I; sequence looked up; chain ASSEAPPLINEDVKRTVDLSSHLAKVTAEVVLAHLGGGSTSRATSFLLALEPELEARLAHLGVQVKGEDEEENNLEVRETKIKGKSGRFFTVKLPVALDPGAKISVIVETVYTHVLHPYPTQITQSEKQFVVFEGNHYFYSPYPTKTQTMRVKLASRNVESYTKLGNPTRSEDLLDYGPFRDVPAYSQDTFKVHYENNSPFLTITSMTRVIEVSHWGNIAVEENVDLKHTGAVLKGPFSRYDYQRQPDSGISSIRSFKTILPAAAQDVYYRDEIGNVSTSHLLILDDSVEMEIRPRFPLFGGWKTHYIVGYNLPSYEYLYNLGDQYALKMRFVDHVFDEQVIDSLTVKIILPEGAKNIEIDSPYEISRAPDELHYTYLDTFGRPVIVAYKKNLVEQHIQDIVVHYTFNKVLMLQEPLLVVAAFYILFFTVIIYVRLDFSITKDPAAEARMKVACITEQVLTLVNKRIGLYRHFDETVNRYKQSRDISTLNSGKKSLETEHKALTSEIALLQSRLKTEGSDLCDRVSEMQKLDAQVKELVLKSAVEAERLVAGKLKKDTYIENEKLISGKRQELVTKIDHILDAL

Molecule | target or system | assay | system | setting | scale | endpoint | value
CTGTTACTCT | Salmonella enterica serovar Typhimurium | RNA-seq, item: pflA (SL1344_0907) | peptide, SL1344 | 5 µM, 15 min | baseline: water control | log2 fold change | -1.18
colistin | Pseudomonas aeruginosa | broth microdilution | clinical isolate RKI-No_84/15 |  |  | MIC | 1 µg/mL
GCCATGCTTT (PNA, CPP-conjugated) | Salmonella enterica serovar Typhimurium |  | peptide, SL1344 | 10 µM, 8 h | baseline: untreated | log reduction | 4.77 log CFU/mL
colistin | Pseudomonas aeruginosa |  | PER-producing clinical isolate S13-35 |  |  | MIC | 0.5 µg/mL
CTTTCATGCG (PNA, CPP-conjugated) | Salmonella enterica serovar Typhimurium | item: CFU | peptide, SL1344, Caenorhabditis elegans infection model, worms | 4 × MIC, 24 h | baseline: untreated | bacterial load reduction | 96.2%
milbemycin oxime | Saccharomyces cerevisiae | cell growth | Pdr5 deleted, Cdr1 overexpressed | 2^-6.966 µg/mL |  | OD600 | 1.02 and 0.976 and 0.99
colistin A | Pseudomonas aeruginosa | broth microdilution | ATCC 27853 | added: Survanta 10% (2.5 mg/mL phospholipid) | baseline: without surfactant | MIC fold increase | 4 fold
B1 (human ribophorin I) | PP6C (human) | co-immunoprecipitation, IP-MS | CYB5R4 knockout cells | concentration not given | baseline: CYB5R4 knockout over parental | log2 fold change | 0.7
CTCAATCTCT | Salmonella enterica serovar Typhimurium | RNA-seq, item: htrA (SL1344_0210) | peptide, SL1344 | 5 µM, 15 min | baseline: water control | log2 fold change | -1.32
gentamicin sulfate | Pseudomonas aeruginosa |  | ATCC 27853 | 18 h, 37 °C, added: LED light 1.57 mW, 10 min |  | MIC | 0.5 µM
human CCT1 | PP6C (human) | co-immunoprecipitation, IP-MS | CYB5R4 knockout cells | concentration not given | baseline: CYB5R4 knockout over parental | log2 fold change | -0.21
Polymyxin B | Staphylococcus aureus |  | CMCC 26003 | concentration not given |  | superoxide dismutase activity | 0.273 U and 0.259 U and 0.284 U
CTCATAGACT | Salmonella enterica serovar Typhimurium | RNA-seq, item: lipA (SL1344_0621) | peptide, SL1344 | 5 µM, 15 min | baseline: water control | log2 fold change | -2.33
silver nitrate | Candida albicans | crystal violet staining | ATCC 10231 | 3.5 µg/mL |  | biofilm inhibition | 62 ± 4%
GACATACTCT | Salmonella enterica serovar Typhimurium | RNA-seq, item: gnd (SL1344_2058) | peptide, SL1344 | 5 µM, 15 min | baseline: water control | log2 fold change | -2.29
FGA (Homo sapiens, UniProt P02671) | PDE4DIP (Homo sapiens, UniProt Q5VU43) | cross-linking MS |  | added: DSSO |  | cross-linked residues | K440 to K504
CTCATTGTCT | Salmonella enterica serovar Typhimurium | RNA-seq, item: artI (SL1344_0866) | peptide, SL1344 | 5 µM, 15 min | baseline: water control | log2 fold change | -2.48
polymyxin A1 | Pseudomonas aeruginosa | broth microdilution | ATCC 27853 | added: Survanta 10% (2.5 mg/mL phospholipid) | baseline: without surfactant | MIC fold increase | 2 fold
TCATCCGCTG (PNA, CPP-conjugated) | Salmonella enterica serovar Typhimurium |  | peptide, SL1344 | 10 µM, 8 h | baseline: initial count | log reduction | 3.2 log CFU/mL
Polymyxin B | Pseudomonas aeruginosa |  | ATCC 27853 | 125 µg per disc, 24 h, 37 °C |  | inhibition zone diameter | 12 mm
Phosphate | Saccharomyces cerevisiae | cell growth, OD600 after 16 h | Pho84 strain | added: 93 mM NaH2PO4 |  | EC50 | < 4 mM
TCACTATCTC | Salmonella enterica serovar Typhimurium | RNA-seq, item: mpl (SL1344_4349) | peptide, SL1344 | 5 µM, 15 min | baseline: water control | log2 fold change | -1.41
heparin | Plasmodium falciparum | parasite growth | Dd2 | 12.5 µg/mL, 72 h |  | inhibition | > 50%
Nisin | Bacillus subtilis | bacterial cytological profiling | ATCC 6633 | concentration not given |  | cell area | 1.1 µm² and 0.9 µm² and 1.2 µm²
